Measurements collected from several papers.
Protocols differ between the studies behind these lines. Several values in a cell are separate wells, animals, samples, runs or records. ± gives the spread as reported.

C=Cc1c2[n-]c(c1C)/C=c1\[n-]/c(c(C)c1C=C)=C\c1[n-]c(c(CCC(=O)O)c1C)/C=c1\[n-]c(c(C)c1CCC(=O)O)=C2.[Sn+4] — fold change (SH-SY5Y; RNA-seq, measured: IQGAP2 mRNA; 5 µM, 5 h; baseline: untreated cells): 1.59
Cn1cc(Nc2nccc(-c3ccc4c(c3)CN(C3COC3)CC[C@H]4NC(=O)c3cn(C(C)(C)C)nn3)n2)cn1 — pathway activation z-score (mouse splenic B cells; measured: mTOR signalling; 30 mg/kg, IgD-activated in vivo; baseline: vehicle, direction not given): 2.06
CC/C(=N\NC(=O)C(C)Nc1ccccc1)c1ccc(O)c(C)c1O (stereo not drawn) — protein level (SK-OV-3; Western blot, measured: phospho-YAP; 10 µM, 1 h, 2D culture, unit not given; baseline: total YAP): 0.43 ± 0.25
CCn1cc(-c2cc(Cn3ccoc3=N)cc3c2CCN([C@@H](C)c2cc(OC)ccn2)C3=O)c(C(F)(F)F)n1 — EC50 (DMS-273; cell growth, inhibitor; 120 h): 4.03 µM
Nc1ncnc2c1ncn2[C@@H]1O[C@H](CO)[C@@H](O)[C@H]1O — log2 fold change (activated human T cells; measured: hypoxanthine; 50 µM; baseline: DMSO): 2.1 and 2.4 and 2.9
Cc1cccc(-c2[nH]c(CNc3ccccc3F)nc2-c2ccc3ncnn3c2)n1 — surface marker level (RPMI-8226; flow cytometry, measured: CD314; concentration not given; baseline: comparator compound alone): 157%
O=C(/C=C/C=C/C=C/C1CCCCC1)NC1=C[C@@](O)(/C=C/C=C/C=C/C(=O)NC2=C(O)CCC2=O)[C@@H]2O[C@@H]2C1=O — GI50 (HGC-27; cell growth, CellTiter-Glo; 78 h): 17.5 µM
Cn1cc(-c2ccc(-c3cncc(Cl)c3N3CCC4(CCNC4=O)CC3)cc2)cn1 — log2 fold change (COLO 205; gene expression, microarray, measured: TIMP2 mRNA; concentration not given, 2 h; baseline: untreated cells): 2.58
COc1cnc2cccc(N3CCc4c(cc(Cn5ccnc5C)cc4-c4cn(C)nc4C(F)(F)F)C3=O)c2c1 — EC50 (KMS-26; cell growth, inhibitor; 120 h): 0.012 µM
CCN1CCN(Cc2ccc(Nc3ncc(F)c(-c4cc(F)c5nc(C)n(C(C)C)c5c4)n3)nc2)CC1 — IC50 (HD-MB03; cell growth; 168 h, single agent): 1.55 µM
CCn1cc(-c2cc(Cn3ccnc3)cc3c2CCN([C@H](c2cc(OC)ccn2)C2CC2)C3=O)c(C(F)(F)F)n1 — EC50 (DMS-273; cell growth, inhibitor; 120 h): > 30 µM
COc1cc(Br)c(Nc2nc(-c3c(C)nc4ncccn34)cs2)c(Br)c1 — IC50 (HD-MB03; cell growth; DMSO): 0.986 µM
Cn1cnc2c(F)c(Nc3ccc(Br)cc3F)c(C(=O)NOCCO)cc21 — viability (A-375; 0.03906 µM, 72 h): 107%
COc1cc(C(=O)O)ccc1NC(=O)[C@@H]1N[C@@H](CC(C)(C)C)[C@](C#N)(c2ccc(Cl)cc2F)[C@H]1c1cccc(Cl)c1F — IC50 (HD-MB03; cell growth; 168 h, DMSO): 0.08 µM
COc1cc(C)nc(-n2nc(C)cc2OC)n1 — reversal of trafficking deficit (primary rat hippocampal/cortical neuron-glia cultures; 1 µM, added: 1 µM α-synuclein oligomers): 6.71%
Nc1nc(N)c2nc(CNc3ccc(C(=O)NCCc4ccccc4)cc3)cnc2n1 — mitochondrial toxicity (786-O; high-content imaging, measured: MitoTracker Red uptake; 10 µM): 12.7 ± 4.86%
CC(C)c1c2cc(-c3ccnc(NC4CCC(NC5CCOCC5)CC4)n3)ccc2nn1C (stereo not drawn) — fold change in IC50 (HD-MB03; concentration not given, added: ribociclib NG; baseline: ribociclib over DMSO): 1.42
Cc1ccc(CNC(=O)Cn2cc(CSc3nc4ccccc4[nH]3)nn2)cc1 — cytotoxicity (MDA-MB-231; MTT; 500 ppm): 93.7%
NC(=O)NO — concentration of maximum effect (mouse CD4 T cells triple reporter; flow cytometry, measured: IFNγ-YFP; six days): 200 µM
COCCOCCOCCOc1ccc(C#Cc2cc(CN3CCN(Cc4cc(C#Cc5ccc(OCCOCCOCCOC)cc5)cc(C(=O)O)n4)CCN(Cc4cc(SC[C@H](N)C(=O)NC[C@H]5CC[C@H](C(=O)N[C@@H](Cc6ccc7ccccc7c6)C(=O)NCCCC[C@H](NC(=O)N[C@@H](CCC(=O)O)C(=O)O)C(=O)O)CC5)cc(C(=O)O)n4)CC3)nc(C(=O)O)c2)cc1 [yttrium-86 labelled] — cell-bound radioactivity (PC-3 flu (PSMA-negative); concentration not given): 8.33 ± 0.27%
CC1(C)CCC(CN2CCN(c3ccc(C(=O)NS(=O)(=O)c4ccc(NCC5CCOCC5)c([N+](=O)[O-])c4)c(Oc4cnc5[nH]ccc5c4)c3)CC2)=C(c2ccc(Cl)cc2)C1 — viable cells (THP-1; annexin V/PI flow cytometry, measured: annexin V-/PI-; 0.2 µM, 24 h): 94.6%
